Experimental data from different studies.
Parts stem from different laboratories: compare values within a part only. Changes are numbered by the printed parent chain.

Set 1 — method: aptamer microarray, sandwich; form: DNA with 2'F-ANA; matrix: in vitro; tested at: 200 nM; together with: Cy3 exosite-II aptamer, 400 nM; direction: higher = stronger binding; strand: GGTTGGTGTGGTTGG
Target: Prothrombin, mature alpha-thrombin (F2, Homo sapiens, UniProt P00734)
Setting: whole 15-mer aptamer, many near background
`2'F-ANA at 2 6 8 10 15` — result for “mean fluorescence intensity”: 131 a.u.
`2'F-ANA at 1 2 5 8 12 14 15` — result for “mean fluorescence intensity”: 49.4 a.u.
For `2'F-ANA at 2 4 9 10 11 12`, “mean fluorescence intensity” read 120 a.u.
`2'F-ANA at 1 2 3 4 5 6 7 8 9 10 11 14 15` — result for “mean fluorescence intensity”: 64.4 a.u.
`2'F-ANA at 2 3 6 8 10 11 12 15` — result for “mean fluorescence intensity”: 296 a.u.
`2'F-ANA at 3 4 6 7 8 9 11 12 13 15`: “mean fluorescence intensity” 484 a.u.
Under “mean fluorescence intensity”, `2'F-ANA at 1 3 5 6 8 9 10 11 12 13 14` is recorded as 51.3 a.u.
`2'F-ANA at 4 9 11 12 13 14` — result for “mean fluorescence intensity”: 92.9 a.u.

Set 2 — method: RNA Bind-n-Seq; form: RNA; matrix: in vitro; tested at: 20 nM; setting: 6-mer, flanks averaged, single round; together with: 150 mM KCl; baseline: input library; direction: higher = stronger binding
Target: TAR DNA-binding protein 43, full length, His tag (TARDBP, Homo sapiens, UniProt Q13148, residues 1-414)
For `AGCUCG`, “6-mer enrichment (R)” read 0.758.
For `UCCUUG`, “6-mer enrichment (R)” read 0.705.
For `UGUUGU`, “6-mer enrichment (R)” read 0.893.
Under “6-mer enrichment (R)”, `UCUUCU` is recorded as 0.542.
Under “6-mer enrichment (R)”, `UGUGUC` is recorded as 0.862.
`GACACG` — result for “6-mer enrichment (R)”: 1.06.
`UGCACG`: “6-mer enrichment (R)” 0.971.
For `AGCGGG`, “6-mer enrichment (R)” read 4.08.

Set 3 — method: competition protein-binding microarray; form: double-stranded DNA, one strand shown; matrix: in vitro; tested at: 2 µM; together with: Pho4 competitor, 0.05 µM; direction: higher = stronger binding
Target: Centromere-binding protein 1, full length, His-tagged (CBF1, Saccharomyces cerevisiae, UniProt P17106, residues 1-351)
UniProt P17106, sequence (whole entry, looked up): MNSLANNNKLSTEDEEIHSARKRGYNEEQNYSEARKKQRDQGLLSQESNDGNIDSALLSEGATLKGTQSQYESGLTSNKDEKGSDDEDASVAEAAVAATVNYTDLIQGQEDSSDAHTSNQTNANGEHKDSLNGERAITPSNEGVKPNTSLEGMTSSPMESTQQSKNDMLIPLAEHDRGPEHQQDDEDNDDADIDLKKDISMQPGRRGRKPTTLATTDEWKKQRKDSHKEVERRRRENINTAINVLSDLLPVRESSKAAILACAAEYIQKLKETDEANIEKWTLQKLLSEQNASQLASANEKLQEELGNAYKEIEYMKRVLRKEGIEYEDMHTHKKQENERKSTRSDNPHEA
Setting: whole 60-bp probe, lowest competitor level
For `CGTCCTAGTGATTGCATGGTGGGTGCCATGAGGAAGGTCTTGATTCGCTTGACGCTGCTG`, the fluorescence intensity was 85.6 a.u.
The fluorescence intensity of `CTGGAGGGCGTAACGGCCGTGATGGGGCCTGAGCTCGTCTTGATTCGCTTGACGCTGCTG` is reported as 46.6 a.u.
The fluorescence intensity of `CTTCTGTAAATTTTTCACGTGAGATGACGCGCCCCGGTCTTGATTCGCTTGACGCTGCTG` is reported as 832 a.u.
With `CATTAAGTGCTTCCTCACGTGCCGATCTACTTCTCTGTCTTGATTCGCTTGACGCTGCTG` the fluorescence intensity was 1270 a.u.
With `GTCTTGTCTCATTGATTCGTGGGTGTCCCCACTTCAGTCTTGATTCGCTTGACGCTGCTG` the fluorescence intensity was 75.2 a.u.
For `CTAACGAAGGTTTGTCACGCCACTTACAAGCCAAGTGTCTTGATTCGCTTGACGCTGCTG`, the fluorescence intensity was 254 a.u.
`TCATATTTGACGAGTCACGTTTCTTACAATGTCTACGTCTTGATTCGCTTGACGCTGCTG` gave a fluorescence intensity of 1280 a.u.
With `AAAGCGGTAATTTTTCACGTGACATCACATATCTATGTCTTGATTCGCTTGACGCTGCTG` the fluorescence intensity was 5910 a.u.

Single results of other studies
Starting sequence: viral docking peptide; KGVKRKLFAEDSS; partner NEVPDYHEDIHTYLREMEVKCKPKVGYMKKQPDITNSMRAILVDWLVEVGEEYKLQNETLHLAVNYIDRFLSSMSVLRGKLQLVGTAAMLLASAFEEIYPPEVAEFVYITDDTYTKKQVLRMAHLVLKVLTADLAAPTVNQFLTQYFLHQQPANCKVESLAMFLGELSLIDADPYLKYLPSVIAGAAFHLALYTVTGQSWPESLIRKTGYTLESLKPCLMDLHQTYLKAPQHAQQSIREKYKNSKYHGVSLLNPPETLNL
`KGVKRKLFFEDSS [A9F]`: “normalised enrichment score” 6.31 (CCNA2, cyclin fold, Cln2 fusion (human); yeast growth competition, sequencing; yeast; strong parent motif; baseline: not given, higher = stronger binding).

Repeated from above (set 2):
`UGCACG`: “6-mer enrichment (R)” 0.971.
For `UCCUUG`, “6-mer enrichment (R)” read 0.705.
For `AGCUCG`, “6-mer enrichment (R)” read 0.758.
